Measurements of several laboratories.
Numbered parts are unrelated; each lists some results of a single study.

Set 1 — method: competition protein-binding microarray; form: double-stranded DNA, one strand shown; medium: in vitro; concentration: 2 µM; together with: Cbf1 competitor, 0.05 µM; reading: higher = stronger binding; constant ends, left off below: … GTCTTGATTCGCTTGACGCTGCTG
Target: Phosphate system positive regulatory protein PHO4, full length, GST-tagged (PHO4, Saccharomyces cerevisiae, UniProt P07270, residues 1-312)
Notes: whole 60-bp probe, lowest competitor level
Target sequence (chain): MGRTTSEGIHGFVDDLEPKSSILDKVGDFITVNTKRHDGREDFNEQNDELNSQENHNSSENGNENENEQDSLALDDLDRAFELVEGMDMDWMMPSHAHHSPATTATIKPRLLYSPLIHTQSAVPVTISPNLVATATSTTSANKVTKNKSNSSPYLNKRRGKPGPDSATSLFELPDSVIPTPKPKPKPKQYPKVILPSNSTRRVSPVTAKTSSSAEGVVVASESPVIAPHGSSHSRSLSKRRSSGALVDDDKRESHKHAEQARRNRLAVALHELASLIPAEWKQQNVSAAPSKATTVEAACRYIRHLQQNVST
Strand | fluorescence intensity [a.u.]
AAAGCGGTAATTTGTCACCTGACTTCACATATCTAT | 3820
ACAATAGGGTTTCGTCACGTAATAAGCAACGTACAG | 5460
AAGAGCGTAAGCTTGCTCGTGGTGAGAAGGGAACTA | 7690
GCCGTTCAGCGACTCCATGTGCTCGGGAATCCGCTG | 9990
CTTCTGCTATGGATGCACGTGAACGCTCTATTCAAC | 16200
ACTCCCTGGAAAAAGCACGTGCCGAGCTGGATCTGC | 20500
AAAGCGGTAATTTGCATTGTGGGTGCAGATATCTAT | 5080
CGTCCTAGTGATTTTCACGTGTCTTCCATGAGGAAG | 13100
CATTAGTTTTTTACCTGTGTGACGGTTATACATAAC | 4920
TACAATGTCGAGCCTCTCGTGGGTAATCTGGAACAG | 8210
AAATTACTAAGTTGAAATGTGGGTGACGCCGTATGA | 5420
GCTTTCGATTTTCCTCACGTGACGGCGTTTCTTGGC | 12900
TTTGGCAAATTGACTCACGTGAGGACGTCTGCTAAC | 12300
TGGACCCTTGTCCGTCACGTGAGGAAAAATACTATT | 12100
ACAGTATATTCCAAACATGTGTTAATCAAGCGTTGA | 9190
AATATCCTCAACCTACACGTCTTCACCATCAGTACC | 5790
ATAGCATCAACCGCACACATGATTAGGATGTAGACG | 8740
AAAGCGGTAATTTTTCACGTGTTCTCACATATCTAT | 13500
CGATGGATATATTGTCATGCGGATGCATTTTGGCTG | 6930

Set 2 — method: protein binding microarray; form: double-stranded DNA, one strand shown; medium: in vitro; concentration: not given; reference: not given; reading: higher = stronger binding
Target: Histone acetyltransferase KAT6A, winged helix 1, GST fusion (KAT6A, Homo sapiens, UniProt Q92794, residues 1-85)
Notes: 8-mer, flanks averaged, mean of 2 arrays, mostly near background
Residues (chain): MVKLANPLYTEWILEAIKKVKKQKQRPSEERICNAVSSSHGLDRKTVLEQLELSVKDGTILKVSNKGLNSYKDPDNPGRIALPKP
Strand | E-score
CAATAGCA | -0.145
CAGCTCAA | -0.265
ATTAACTG | -0.208
AGGCCGCG | 0.373
ATGACAAG | -0.151
AAACGTGA | -0.138
GTTCCTTA | -0.12
ACATACCT | -0.198
CTTCCCGC | 0.334
CAGGGAAG | -0.126
GAACTAAC | -0.0964
ACACTTTG | -0.195
ATGGCACC | 0.109
TAACTACA | -0.074
GACTCACC | 0.0394
CTACATTA | -0.111
TAGCAGAA | -0.277
ACGTGTCG | -0.0981
AATTAATG | 0.0168

Set 3 — method: protein-binding microarray; form: double-stranded DNA, one strand shown; medium: in vitro; concentration: 2540 nM top; notes: 60-bp whole probe; together with: salmon DNA 0.4 mg/ml; reference: random background probes; reading: higher = stronger binding; constant ends, left off below: GCCTAGCAC … GTCTTGATTCGCTTGACGCTGCTG
Target: Interferon regulatory factor 3, full length, phosphomimetic (IRF3, Homo sapiens, UniProt Q14653, residues 1-427, S386D/S396D/S398D/S402D/T404D/S405D)
Residues (chain): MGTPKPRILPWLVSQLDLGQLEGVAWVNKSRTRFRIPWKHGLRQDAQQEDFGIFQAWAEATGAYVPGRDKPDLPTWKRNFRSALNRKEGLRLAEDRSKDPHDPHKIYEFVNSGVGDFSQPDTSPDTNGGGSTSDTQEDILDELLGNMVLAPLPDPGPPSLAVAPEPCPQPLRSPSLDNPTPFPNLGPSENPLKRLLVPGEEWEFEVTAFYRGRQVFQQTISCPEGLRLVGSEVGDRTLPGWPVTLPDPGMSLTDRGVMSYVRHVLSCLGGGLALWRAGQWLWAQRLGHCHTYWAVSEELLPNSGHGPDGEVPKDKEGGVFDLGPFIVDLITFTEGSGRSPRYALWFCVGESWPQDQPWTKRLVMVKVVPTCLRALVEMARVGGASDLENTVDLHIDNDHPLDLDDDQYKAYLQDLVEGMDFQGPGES
Strand | fitted relative affinity
TTGGGACTGGGTTTCGGTTAGTGCTAG | 2.67 z-score
TTAGGTTTCGGTATCGGTTTGTGCTAG | 8.94 z-score
TTAGATATCAGACTGGATTTGTGCTAG | 0.029 z-score
TTAGATTCCAGTTTCGAATAGTGCTAG | 4.41 z-score
CTAGAACTGGGGTTTCGATTAGTGCTA | 1.55 z-score
TTAGCTATCGGGTATCGGTTAGTGCTA | 0.614 z-score
TTAGGACTGGGGTTTAGGTTAGTGCTA | -0.959 z-score
TCACTTTTTTGTTCCACACTGTGCTAG | 1.97 z-score
TCATTCCTAATTCTCTTACTGTGCTAG | 2.09 z-score
TTGGGACTGGGGTTTCGGTTAGTGCTA | 2.05 z-score
ATAGGTTTCGGTTTCGGTTAGTGCTAG | 12.2 z-score
GACGCTCTCGGACTGGGGACGTGCTAG | -0.415 z-score
TTCTGATCCATTTTGGTTTTGTGCTAG | 3.15 z-score
TCAATTGTGCAATCTTAAACTGTGCTA | 0.633 z-score
TTGTGTGTGTGTTTGTGTGTGTGCTAG | -0.758 z-score
TCACACATTTTTTTCATACTGTGCTAG | 0.572 z-score
GCCGGACTGCTTTTCCTGACGTGCTAG | 0.339 z-score
GACGGACTGCGGTTTCGGGACGTGCTA | 1.92 z-score
GACGGTATCGGGCATCGGGACGTGCTA | 0.36 z-score

Set 4 — method: RNA Bind-n-Seq; form: RNA; medium: in vitro; concentration: 365 nM; reference: no-protein control; reading: higher = stronger binding
Target: RNA binding protein fox-1 homolog 2, RRM domain, GST-SBP tag (RBFOX2, Homo sapiens, UniProt O43251-10, residues 100-194)
Notes: natural RNA segment, single round, ends assumed
Constant ends, left off below: GGGAGUUCUACAGUCCGACGAUC … UGGAAUUCUCGGGUGCCAA
Construct (chain): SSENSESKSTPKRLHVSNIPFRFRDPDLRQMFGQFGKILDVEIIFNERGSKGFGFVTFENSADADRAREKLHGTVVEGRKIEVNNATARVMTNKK
Strand | RBNS enrichment (R)
CAAACGCCAUGGGUGCCGUCAGCGAGCGAAGCCUCUCGUGUCGGCUGAUAAAAGCCAGUGGCAGCUGUCGUGGCUGUGCUUUGUACUGCUCUCUACCAUGAAAGUGUAAA | 0.357
UUGUUUUGUUUGCAAACAUGUUUUAAAUUAAAUUCGGGUAAUAUUAAACAGUACAUGUUUACAAUACCAAAAAAGAAAAAAUCCACAAAAGCCACUUUAUUUUAAAAUAU | 1.09
AAACUCCCUUCCAGAAUUUGUAGCUGAGAUUUCUGAUCUUUAACCGUGUCUACACGAAGCACCCAGUUGACAUCCGACUUGUUUUUGAGACGGGGGUCUCACUUAGCUGU | 0.407
AGCCAUUCCAUCUCUUCCGUCCGUCUGUCUGUCUGGGUUGUUUUGUUUUGUUGUUGUUUUGAGACAGGGUUUCUUUGUGUAGCCCUGACUGUUCUGGAACUUGCUCUGAA | 1.2
UUCAGAACAUGAGCAGAAGAAUCGUUUUAUGCUAGUUAUUGCAUUCAUGGUUGAAACUCAACUUAGGGAAAGGGUUCCAAUGUAUUAAGCAAUGGGCUGCUUCUCCCCAA | 0.601
CGACCAUCUCUUCUAUUAAAUUACAGUACAUGUUCUAGACCAUUGAGAUCAAGCCUUUACUCCCUUUGAGAGUUUCCAACAUCAGUUGAUUGAGCUUCAGGCUUUACAAC | 0.409
GGUGCCCACUGGUGUCCCAUGGAAUCCACUCGGGUUGAAAUGUGGAUCUCUCCAUGGGACUCUUUAACCAGGCUAGAACAGCUGUCUGCCAAAGAUACAAGAAUAUGCAA | 1.56
GGGAAAAUGCCACAGUGUUCUCCUGAGAGAACAUCCUUGCUUUGAGUCAGGCUGUGGGCAAGUUCCUGACCACAGGGAGUAAAUUGGCCUCUUUGAUACACUUUUGCUUG | 0.89

For quick reference, copied from above (set 1):
Strand | fluorescence intensity [a.u.]
ACTCCCTGGAAAAAGCACGTGCCGAGCTGGATCTGC | 20500
AAAGCGGTAATTTGCATTGTGGGTGCAGATATCTAT | 5080
CGTCCTAGTGATTTTCACGTGTCTTCCATGAGGAAG | 13100
CATTAGTTTTTTACCTGTGTGACGGTTATACATAAC | 4920
TACAATGTCGAGCCTCTCGTGGGTAATCTGGAACAG | 8210
AAATTACTAAGTTGAAATGTGGGTGACGCCGTATGA | 5420
GCTTTCGATTTTCCTCACGTGACGGCGTTTCTTGGC | 12900
TTTGGCAAATTGACTCACGTGAGGACGTCTGCTAAC | 12300
TGGACCCTTGTCCGTCACGTGAGGAAAAATACTATT | 12100
